Measured values pooled from the literature.
Parts stem from different laboratories: compare values within a part only.

Study 1
Target: Centromere-binding protein 1, full length, His-tagged (CBF1, Saccharomyces cerevisiae, UniProt P17106, residues 1-351)
Sequence of UniProt P17106 (whole entry, looked up): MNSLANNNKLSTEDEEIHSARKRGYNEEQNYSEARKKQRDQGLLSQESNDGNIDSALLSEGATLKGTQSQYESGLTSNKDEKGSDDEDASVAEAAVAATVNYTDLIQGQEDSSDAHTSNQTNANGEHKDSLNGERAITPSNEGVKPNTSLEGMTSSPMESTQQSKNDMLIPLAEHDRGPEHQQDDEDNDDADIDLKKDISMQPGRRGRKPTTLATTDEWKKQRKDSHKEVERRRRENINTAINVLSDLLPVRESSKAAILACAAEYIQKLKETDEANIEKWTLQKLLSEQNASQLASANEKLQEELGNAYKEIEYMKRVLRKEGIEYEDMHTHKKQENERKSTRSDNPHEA
Technique: competition protein-binding microarray
Molecule type: double-stranded DNA, one strand shown
Matrix: in vitro
Tested at: 2 µM
Notes: whole 60-bp probe, lowest competitor level
With: Pho4 competitor, 0.05 µM
Reading: higher = stronger binding
With `CTAACGAAGGTTTGTCACATGACTTACAAGCCAAGTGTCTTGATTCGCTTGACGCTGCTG` the fluorescence intensity was 2510 a.u.
For `CTTTCCCGATCTTGGGTCGTGGGTGTAGCACATTTGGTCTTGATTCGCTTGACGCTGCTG`, the fluorescence intensity was 63.6 a.u.
With `CATACCCAACCTTGTCACATAACTTAAGATATTTGTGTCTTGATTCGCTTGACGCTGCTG` the fluorescence intensity was 91.4 a.u.
`CATACCCAACCTTGTCCGGTGGGTGAAGATATTTGTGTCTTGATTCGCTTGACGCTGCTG` has a fluorescence intensity of 61.8 a.u.
With `TGCGCAACAACTTGACTGGTGGGTGTATGTCTAGAAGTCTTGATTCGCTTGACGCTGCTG` the fluorescence intensity was 50.2 a.u.
With `CGACACAAAAAAGAACCCGTGCAAATATTATATCCCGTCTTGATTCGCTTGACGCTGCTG` the fluorescence intensity was 304 a.u.
The fluorescence intensity of `TAAATCGAAACCACCATCGTGTCCTTCCTTGGGAACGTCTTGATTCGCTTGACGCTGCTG` is reported as 71.6 a.u.
`CGTCCTAGTGATTGTACCGTGGGTGCCATGAGGAAGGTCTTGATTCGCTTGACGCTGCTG` has a fluorescence intensity of 87.2 a.u.
`CTTTCCCGATCTTGCTCAGTGGGTGTAGCACATTTGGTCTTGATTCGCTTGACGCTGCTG` has a fluorescence intensity of 59.4 a.u.

Study 2
Target: Prothrombin, mature alpha-thrombin (F2, Homo sapiens, UniProt P00734)
Technique: aptamer microarray, sandwich
Molecule type: DNA with 2'F-ANA
Matrix: in vitro
Tested at: 200 nM
Notes: whole 15-mer aptamer, many near background
With: Cy3 exosite-II aptamer, 400 nM
Reading: higher = stronger binding
Strand: GGTTGGTGTGGTTGG
Under “mean fluorescence intensity”, `2'F-ANA at 2 3 7 8 10 11 12` is recorded as 425 a.u.
Under “mean fluorescence intensity”, `2'F-ANA at 5 6 9 15` is recorded as 69.3 a.u.
`2'F-ANA at 1 8 9 10 11 12 13` — result for “mean fluorescence intensity”: 66.2 a.u.
Under “mean fluorescence intensity”, `2'F-ANA at 3 5 10 12 13 14 15` is recorded as 49.9 a.u.
`2'F-ANA at 1 2 3 4 5 6 10 11 13 14 15`: “mean fluorescence intensity” 51 a.u.
For `2'F-ANA at 2 4 7 9 11 12 13`, “mean fluorescence intensity” read 344 a.u.
`2'F-ANA at 3 4 5 7 9 10 11 14`: “mean fluorescence intensity” 46.1 a.u.
For `2'F-ANA at 2 3 4 5 7 8 9 10 11 12 13 14`, “mean fluorescence intensity” read 55.7 a.u.
For `2'F-ANA at 4 5 9 10 11 12 13 15`, “mean fluorescence intensity” read 50.1 a.u.

Study 3
Target: Interferon regulatory factor 7, full length, phosphomimetic (IRF7, Homo sapiens, UniProt Q92985, residues 1-503, S101K/S471D/S472D/S475D/S476D/S477D/S483D/S484D/S487D)
Technique: protein-binding microarray
Molecule type: double-stranded DNA, one strand shown
Matrix: in vitro
Tested at: 250 nM
Notes: 60-bp whole probe
With: salmon DNA 0.4 mg/ml
Relative to: random background probes
Reading: higher = stronger binding
Shared flanks, not repeated: GCCTAGCAC … GTCTTGATTCGCTTGACGCTGCTG
Construct (chain): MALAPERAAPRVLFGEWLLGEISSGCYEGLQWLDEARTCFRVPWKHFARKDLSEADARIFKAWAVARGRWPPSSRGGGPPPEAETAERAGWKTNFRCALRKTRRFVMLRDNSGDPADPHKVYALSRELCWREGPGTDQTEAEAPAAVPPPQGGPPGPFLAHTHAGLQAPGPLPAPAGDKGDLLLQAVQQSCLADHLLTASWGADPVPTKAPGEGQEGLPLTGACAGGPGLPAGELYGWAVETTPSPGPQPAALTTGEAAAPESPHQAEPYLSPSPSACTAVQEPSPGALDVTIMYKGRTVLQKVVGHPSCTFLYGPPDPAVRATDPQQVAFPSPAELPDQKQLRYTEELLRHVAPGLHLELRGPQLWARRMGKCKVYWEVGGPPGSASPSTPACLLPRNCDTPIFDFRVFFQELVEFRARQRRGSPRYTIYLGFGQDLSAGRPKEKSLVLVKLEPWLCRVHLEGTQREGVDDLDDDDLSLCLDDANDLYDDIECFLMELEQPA
`TCAACCATCCTGTGTCTTACTGTGCTA` has a log fluorescence of -0.378 z-score.
For `CATTTTATGGTATTTTTTTCGTGCTAG`, the log fluorescence was 1.22 z-score.
The log fluorescence of `TTAGGACTGGGGTTTCGGTAAGTGCTA` is reported as 1.36 z-score.
The log fluorescence of `TCAGTTTTCTCTCCCATACTGTGCTAG` is reported as 1.09 z-score.
With `TTAGGTTTCCTTCTCCTTTCGTGCTAG` the log fluorescence was 2.85 z-score.
The log fluorescence of `GACGGTTTCGCTTTCGGGACGTGCTAG` is reported as 12.9 z-score.

Single results of other studies
With `PhoQ, residues 284 288 289 292 302 303 SSTLLI` the fold induction was 4.3 (PhoP, residues 12 14 15 18 19 LWHVM (Escherichia coli, UniProt P23836); Sort-seq, measured: YFP reporter; E. coli; PhoQ-PhoP variant library, with: 10 µM Mg2+; relative to: high Mg2+ state, higher = stronger signaling).

Some of these lines once more (study 3):
The log fluorescence of `TTAGGACTGGGGTTTCGGTAAGTGCTA` is reported as 1.36 z-score.
`TCAACCATCCTGTGTCTTACTGTGCTA` has a log fluorescence of -0.378 z-score.
